Results of several laboratories.
A part holds a random share of what one study measured.

Study 1
Target: RNA binding protein fox-1 homolog 2, RRM domain, GST-SBP tag (RBFOX2, Homo sapiens, UniProt O43251-10, residues 100-194)
Technique: RNA Bind-n-Seq
Form: RNA
Matrix: in vitro
Tested at: 365 nM
Notes: natural RNA segment, single round, ends assumed
Reference: no-protein control
Direction: higher = stronger binding
All sequences stand within: GGGAGUUCUACAGUCCGACGAUC … UGGAAUUCUCGGGUGCCAA
Residues (chain): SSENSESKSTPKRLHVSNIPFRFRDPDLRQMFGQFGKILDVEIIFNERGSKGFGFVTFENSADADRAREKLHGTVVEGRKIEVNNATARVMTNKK
Oligonucleotide | RBNS enrichment (R)
UGCGUUGACCUGCCUUGUCUUACGGUACACACAGCAAUAAAGCCUGGGUUCCGCCCGGUCUCCACCCUCCCUCCGCCUCCCUUGGUUAGUUUCACAGUGCUGGCAAUGAA | 0.735
AUUGCAUCAGUUUUCCUGUUUGCACUAUUUCUUUUUGUAACAUUGGCCCUGUGUGAAGUAUUUCGAAUCUCCUCCUUGCUCUGAAACUUCAGCGAUUCCAUUGUGAUAAG | 0.411
CUGCUGUCUGGGCUGUAAAGUCUGGAAGGCAUUGGAACUUCUCUGUGGAGUGUAUUAGCAUUCAUCUCUCAUAGACAUCAUGUCACAAAAGACAAUGUUAGUAAACUACA | 0.221
AAAGCUAAAAUCCCUGGCUCAGUUGCUAGAGUGCCUAGUAAAAUUCCUAGCAUAUGUGAGCGCUCCAUUGGCUCAGCACAGACACUAAUAAAGACAUGAUUGGCCCCAGA | 1.54
AUUAAUUCAGUGCCUUUUUCCUCUAAGCAUACUCUUGGUCCAUGCCCCAUGCAGUGUCAACUGAUGUUUAAGCUACAGAGCAUUGUUGUAGUGGUGAGGGCCCUCUGUUG | 0.526
CUCUCUCUUCAGCCGCUCCACAGGACAGCCAUUCCUUCUGCCGCCCACCCCCCUUAGACCACAGACAGCAUAUGGGUAUUGCUUGUUUAGAUCCAUCCCACACCCAGACA | 1.54

Study 2
Target: Interferon regulatory factor 7, full length, phosphomimetic (IRF7, Homo sapiens, UniProt Q92985, residues 1-503, S101K/S471D/S472D/S475D/S476D/S477D/S483D/S484D/S487D)
Chain of UniProt Q92985 (whole entry, unmodified, looked up): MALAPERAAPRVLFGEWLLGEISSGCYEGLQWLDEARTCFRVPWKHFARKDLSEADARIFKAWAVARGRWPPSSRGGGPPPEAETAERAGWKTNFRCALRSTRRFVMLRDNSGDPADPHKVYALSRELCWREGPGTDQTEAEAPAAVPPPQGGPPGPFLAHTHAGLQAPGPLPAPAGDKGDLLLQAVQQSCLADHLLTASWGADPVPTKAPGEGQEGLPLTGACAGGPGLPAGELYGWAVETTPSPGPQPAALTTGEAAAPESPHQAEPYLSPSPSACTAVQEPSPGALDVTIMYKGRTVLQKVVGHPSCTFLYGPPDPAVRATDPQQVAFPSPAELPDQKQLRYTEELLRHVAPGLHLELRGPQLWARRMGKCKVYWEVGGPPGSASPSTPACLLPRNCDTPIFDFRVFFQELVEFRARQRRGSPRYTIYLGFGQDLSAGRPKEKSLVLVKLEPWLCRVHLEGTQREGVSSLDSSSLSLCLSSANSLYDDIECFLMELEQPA
Technique: protein-binding microarray
Form: double-stranded DNA, one strand shown
Matrix: in vitro
Tested at: 250 nM
Notes: 60-bp whole probe
With: salmon DNA 0.4 mg/ml
Reference: random background probes
Direction: higher = stronger binding
Oligonucleotide | log fluorescence [z-score]
GCCTAGCACTTACGACTGGGGTTTCGGTTAGTGCTAGTCTTGATTCGCTTGACGCTGCTG | 4.97
GCCTAGCACGAAGGTTTCGACTTTCGGGACGTGCTAGTCTTGATTCGCTTGACGCTGCTG | 10.4
GCCTAGCACTCATTTCTACTGTCTGTTACTGTGCTAGTCTTGATTCGCTTGACGCTGCTG | 1.58
GCCTAGCACTTAGTTTTCGGTATCGGTTAGTGCTAGGTCTTGATTCGCTTGACGCTGCTG | 5.75

Study 3
Target: Histone acetyltransferase KAT6A, both winged helices, GST fusion (KAT6A, Homo sapiens, UniProt Q92794, residues 1-181)
Technique: protein binding microarray
Form: double-stranded DNA, one strand shown
Matrix: in vitro
Tested at: not given
Notes: 8-mer, flanks averaged, mean of 2 arrays, mostly near background
Reference: not given
Direction: higher = stronger binding
Target sequence (chain): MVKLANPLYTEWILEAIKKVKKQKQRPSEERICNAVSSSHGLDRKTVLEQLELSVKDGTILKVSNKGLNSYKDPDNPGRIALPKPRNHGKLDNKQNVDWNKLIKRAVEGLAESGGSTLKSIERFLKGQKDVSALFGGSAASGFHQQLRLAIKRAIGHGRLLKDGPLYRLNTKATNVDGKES
Oligonucleotide | E-score
AACCAGGT | -0.194
ATCAGTTC | -0.0424
TGATCGCA | 0.0971
GCGAACCC | 0.177
CATCTCTA | -0.12

Single results of other studies
Molecule | target | test | test system | conditions | how to read | quantity | value
PhoQ, residues 284 288 289 292 302 303 NSMLDC | PhoP, residues 12 14 15 18 19 LHATL (Escherichia coli, UniProt P23836) | Sort-seq, item: YFP reporter | E. coli | PhoQ-PhoP variant library, with: 10 µM Mg2+ | reference: high Mg2+ state, higher = stronger signaling | fold induction | 2.3
